Measurements pooled from the literature.
Compare with care: the assays were run in different laboratories. Values joined by “and” are separate records of one study, mostly repeats; a detail may differ. Numbers after ± are the reported error.

SMILES	cell line	assay	system	setting	how to read	measurement	value
Nc1cccc2c1C(=O)N(C1CCC(=O)NC1=O)C2=O (stereo not drawn)	bone marrow CD138+ myeloma cells	XTT		1.6 µM, phenol red-free RPMI		viability	25%
CCc1n(Cc2ccc3ccccc3n2)cc[n+]1Cc1ccc2ccccc2n1	NSCLC cell lines	NCI60 one-dose		10 µM, average over cell lines		growth	25 to 31.8%
CC(C)(c1ccc(O)cc1)c1ccc(O)cc1	HepG2 spheroids	Hoechst flow cytometry		40 µM, 24 h		G2 phase cells	19.1 ± 4.13%
CCOc1cc([C@@H](CS(C)(=O)=O)N2C(=O)c3cccc(NC(C)=O)c3C2=O)ccc1OC	PBMC	MSD		0.001 µM, unit not given, with: PGE2	baseline: DMSO	cAMP level difference	-1.82
COc1ccc(N(CC2CCC2)S(=O)(=O)C2CC3OC2C(c2ccc(O)cc2)=C3c2ccc(O)cc2)cc1 (stereo not drawn)	MCF7 3xERE-luc, steroid-deprived	ERE luciferase reporter, agonist			baseline: vehicle	Emax	-8.4%
COc1cc(OC)c2c(=O)[nH]c(-c3cc(C)c(OCCO)c(C)c3)nc2c1	murine AML cells	BRD4 chromatin occupancy, ChIP-seq, measured: Irf2bp2 locus		concentration not given	baseline: DMSO	log2 fold change	0.06
COc1ccc(-n2nc(C(C)=O)s/c2=N\N=C(/C)c2ccc(NC(=O)c3ccc(Cl)cc3)cc2)cc1	MCF7			0.156 µM		toxicity	51.7%
Nc1ncnc2c1ncn2[C@@H]1O[C@H](CO)[C@@H](O)[C@H]1O	activated human T cells	measured: inosine		50 µM	baseline: DMSO	log2 fold change	2.2 and 2.7 and 1.7
CCc1cnc(N2CCC(c3nc(COc4ccc(-n5cnnn5)cc4)cs3)CC2)nc1	HEK293T	RNA-seq, measured: DNAJB1 mRNA		10 µM, 6 h	baseline: vehicle	log2 fold change	-0.418
CC[C@H](C(=O)N1CCCC[C@H]1C(=O)O[C@H](CCc1ccc(OC)c(OC)c1)c1cccc(OCC(=O)NCC(CNC(=O)COc2cccc([C@@H](CCc3ccc(OC)c(OC)c3)OC(=O)[C@@H]3CCCCN3C(=O)[C@@H](CC)c3cc(OC)c(OC)c(OC)c3)c2)CN(C)C)c1)c1cc(OC)c(OC)c(OC)c1	THP-1 expressing FKBP-caspase-4			concentration not given		LDH release	77.2% and 76.5% and 79.2%
Cn1cc(Nc2nccc(-c3ccc4c(c3)CN(C3COC3)CC[C@H]4NC(=O)c3cn(C(C)(C)C)nn3)n2)cn1	mouse splenic B cells	measured: GM-CSF signalling		30 mg/kg, IgD-activated in vivo	baseline: vehicle, direction not given	pathway activation z-score	1.39
Cc1cc(Nc2ncc(Cl)c(Nc3ccccc3S(=O)(=O)C(C)C)n2)c(OC(C)C)cc1C1CCNCC1	CLB-BAR	phosphoproteomics LC-MS/MS, measured: BCR phosphorylation		200 nM, 60 min	baseline: untreated	log2 fold change	-1.81
CCCCc1nc(Cl)c(CO)n1Cc1ccc(-c2ccccc2-c2nn[nH]n2)cc1	human PBMC	RNA-seq, measured: MS4A6A mRNA		10 µg/mL, 24 h	baseline: untreated control	log2 fold change	-3.82
Cc1ccc(CNC(=O)Cn2cc(CSc3nc4ccccc4[nH]3)nn2)cc1	Caco-2	MTT		7.81 ppm		viability	50.7%
O=C(/C=C/C=C/C=C/C1CCCCC1)NC1=C[C@@](O)(/C=C/C=C/C=C/C(=O)NC2=C(O)CCC2=O)[C@@H]2O[C@@H]2C1=O	IGR-37	cell growth, CellTiter-Glo		78 h		GI50	16.9 µM
COc1cnc2cccc(N3CCc4c(cc(Cn5ccnc5C)cc4-c4cn(C)nc4C(F)(F)F)C3=O)c2c1	G-401	cell growth, inhibitor		120 h		EC50	0.602 µM
CC/C(=N\NC(=O)C(C)Nc1ccccc1)c1ccc(O)c(C)c1O (stereo not drawn)	SK-OV-3	Western blot		10 µM, 1 h, 3D gellan gum culture, unit not given	baseline: DMSO	TAZ band intensity	0.28 ± 0.02
c1ccc2cc(Cn3cc[n+](Cc4ccc5ccccc5c4)c3)ccc2c1	NSCLC cell lines	NCI60 five-dose		range over NSCLC panel		CC50	15.2 to 71.9 µM
Cn1cc(-c2ccc(-c3cncc(Cl)c3N3CCC4(CCNC4=O)CC3)cc2)cn1	COLO 205	gene expression, microarray, measured: POU2AF1 mRNA		concentration not given, 2 h	baseline: untreated cells	log2 fold change	-2.86
C[C@H]1Oc2cc(cnc2N)-c2c(nn(C)c2C#N)CN(C)C(=O)c2ccc(F)cc21	Ba/F3 EML4-ALK v3	cell viability				Emax	99.9%
C=CC(=O)Nc1cccc(Oc2nc(Nc3ccc(N4CCN(C)CC4)cc3)nc3ccoc23)c1	TMD8 wild-type	calcium flux, FLIPR		1 h preincubation, with: anti-IgM		maximum inhibition	54.3%
Cc1ccc(-c2cc3ccccc3c(N)n2)cc1	RS4;11	annexin V-FITC/PI flow cytometry, measured: annexin V+ PI-		5.0 µM, 72 h		early apoptotic cells	3.2%
C=CC(=O)N1[C@@H](c2ccc3c(c2)OCO3)c2[nH]c3ccccc3c2C[C@H]1C(=O)NC	rat DRG neurons			1.111 µM, 48 h, with: vincristine 40 nM		neuron degeneration	72.6% and 69.3%
CN1C(=O)C(Cc2c[nH]c3ccccc23)NC1=S (stereo not drawn)	L929	ATP viability		concentration not given, with: poly(I:C) and zVAD		necroptosis	no effect

SMILES	cell line	assay	system	setting	how to read	measurement	value
Cc1c(C(=O)NN2CCCCC2)nn(-c2ccc(Cl)cc2Cl)c1-c1ccc(Cl)cc1	CHO wild-type cells lacking MOR, membranes	basal G-protein activity		10 µM		inhibition	~20%
COCCc1n(Cc2ccc3ccccc3c2)c2ccccc2[n+]1Cc1ccc2ccccc2c1	NSCLC cell lines	NCI60 one-dose screen		10 µM		mean growth percentage	-23.2%
CCn1cc(-c2cc(Cn3ccoc3=N)cc3c2CCN([C@@H](C)c2cc(OC)ccn2)C3=O)c(C(F)(F)F)n1	HEC-50B	cell growth, inhibitor		120 h		EC50	0.17 µM
CC#CC(=O)N1CCC[C@H]1c1nc(-c2ccc(C(=O)Nc3ccccn3)cc2)c2c(N)nccn12	TMD8 wild-type	calcium flux, FLIPR		1 h preincubation, with: anti-IgM		maximum inhibition	76.1%
CCCCN1CCN(c2ccc3[nH]c(-c4ccc5[nH]c(-c6ccc(OCC)cc6)nc5c4)nc3c2)CC1	SF-539	SRB		10 µM, 48 h		growth percent	67.9%
COc1ccccc1NC(=S)N[C@@H](NC(=O)c1cccc(Br)c1)C(Cl)(Cl)Cl	MEF with TRE-FLAG-LMNB1	LMNB1 level, high-content screening		250 µM		maximum inhibition	6%
CCn1cc(-c2cc(Cn3ccnc3)cc3c2CCN([C@H](c2cc(OC)ccn2)C2CC2)C3=O)c(C(F)(F)F)n1	SCC-25	cell growth, inhibitor		120 h		EC50	> 30 µM
O=C(O)COCC(=O)O	hepatocytes, iPSC-derived, line W3	cell viability, RealTime-Glo MT		48 h, differentiation day 23		IC50	14300 µM
Cc1cc(NC(=O)c2cccc(NC(=O)/C=C/CN(C)C)c2)ccc1Nc1nccc(-c2cccnc2)n1	AP1 reporter HEK293	AP1 reporter gene, inhibitor		10 µM, 6 h, compound washed out, unit not given, with: PMA	baseline: PMA alone	reporter activity	0.224
C=CC(=O)N1CCC([C@@H]2CCNc3c(C(N)=O)c(-c4ccc(Oc5ccccc5)cc4)nn32)CC1	TMD8 wild-type	calcium flux, FLIPR		4 h preincubation, with: anti-IgM		maximum inhibition	84.8%
c1ccc2nc(Cn3c[n+](Cc4ccc5ccccc5n4)c4ccccc43)ccc2c1	NSCLC cell lines	NCI60 one-dose screen		10 µM		mean growth percentage	44.2%
CC/C(=N\NC(=O)NCc1cccc(O)c1)c1ccc(O)c(C)c1O	SK-OV-3	Western blot	3D culture in gellan gum	5 µM, 1 h, unit not given	baseline: β-actin	TAZ protein level	1.12 ± 0.5
CSc1cc(Oc2ccnc3[nH]c(=O)cnc23)ccc1NC(=O)Nc1cc(C(C)(C)C)nn1-c1ccccc1	patient-derived cell line (sample C)	reverse phase protein array, measured: p53 pSer15	human	1 µM, 4 h	baseline: DMSO	phospho/total p53 ratio	0.64
O=C(C[C@@H](C(F)F)n1ccc(F)n1)N1CCC(O)(Cn2cnc3c(cnn3-c3ccc(F)cc3)c2=O)CC1	CHP-212 parental	PI flow cytometry		1 µM, 24 h		G2/M phase cells	9.49%
NNc1nc(-c2ccc(Cl)cc2)c2c(NC(=O)c3ccccc3)nnc-2[nH]1	SF-539	SRB		10 µM, NCI60 single-dose screen	baseline: untreated	cell growth	96.4%
Cn1cc(-n2cnc3c(NCc4nc5cc(Cl)c(Cl)cc5[nH]4)nc(N4CCOCC4)nc32)cn1	MDA-MB-231	qRT-PCR, measured: SMARCC2		50 nM, 6 h, unit not given	baseline: untreated	mRNA level	0.743
CCc1c(-c2ccccc2)c(-c2ccccc2)nn1-c1ccccc1-c1cccc(OCC(=O)O)c1	mouse bone marrow macrophages	osteoclast formation		with: M-CSF + sRANKL		log IC50	-0.0494
CC(C)NCC(O)c1ccc(O)c(O)c1 (stereo not drawn)	mouse ventricular cardiomyocytes			dose not given, 0.163 s		sarcomere length	1.59 µm
CC(=O)Nc1cc(Oc2ccc3c(c2)CCN3C(=O)Nc2ccc(CN3CCN(C)CC3)c(C(F)(F)F)c2)ncn1	MUTZ5 B-ALL cells	CellTiter-Glo		concentration not given, 3 d		cell proliferation	inhibited
C=CC1=C(C)c2cc3[n-]c(cc4nc(cc5[n-]c(cc1n2)c(C)c5C=C)C(C)=C4CCC(=O)O)c(CCC(=O)O)c3C.[Zn+2]	SH-SY5Y	RNA-seq, measured: FLT1 mRNA		5 µM, 5 h	baseline: untreated cells	fold change	3.22
C=C[C@@]1(C)CC(=O)[C@]2(O)[C@@]3(C)[C@@H](O)CCC(C)(C)[C@@H]3[C@H](O)[C@H](OC(C)=O)[C@@]2(C)O1	PBMC	MSD		10 µM, unit not given, with: PGE2	baseline: DMSO	cAMP level difference	-3.84
CC[C@H](CO)Nc1nc(NCc2ccc(-c3ccccn3)cc2)c2ncn(C(C)C)c2n1	NCI-60 cell lines			mean		GI50	0.19 µM
COc1cc(/C=C/C(=O)N2CCC=CC2=O)cc(OC)c1OC	MDA-MB-468	quantitative RT-PCR, measured: Bcl-2		30 µM, 8 h	baseline: untreated	mRNA level	80.4 ± 2.1%
c1cnc2c(c1)ccc1cccnc12	HEK293T			25 µg/mL	baseline: albendazole	IL-10 mRNA level	decreased

A few entries again:
SMILES	cell line	assay	system	setting	how to read	measurement	value
CC(C)NCC(O)c1ccc(O)c(O)c1 (stereo not drawn)	mouse ventricular cardiomyocytes			dose not given, 0.163 s		sarcomere length	1.59 µm
CC(=O)Nc1cc(Oc2ccc3c(c2)CCN3C(=O)Nc2ccc(CN3CCN(C)CC3)c(C(F)(F)F)c2)ncn1	MUTZ5 B-ALL cells	CellTiter-Glo		concentration not given, 3 d		cell proliferation	inhibited
C=CC1=C(C)c2cc3[n-]c(cc4nc(cc5[n-]c(cc1n2)c(C)c5C=C)C(C)=C4CCC(=O)O)c(CCC(=O)O)c3C.[Zn+2]	SH-SY5Y	RNA-seq, measured: FLT1 mRNA		5 µM, 5 h	baseline: untreated cells	fold change	3.22
C=C[C@@]1(C)CC(=O)[C@]2(O)[C@@]3(C)[C@@H](O)CCC(C)(C)[C@@H]3[C@H](O)[C@H](OC(C)=O)[C@@]2(C)O1	PBMC	MSD		10 µM, unit not given, with: PGE2	baseline: DMSO	cAMP level difference	-3.84
